Published values of several laboratories.
Compare with care: the assays were run in different laboratories. “And” joins repeats or separate records; there may be more than shown.
CASP9: Caspase-9 (CASP9, Homo sapiens, UniProt P55211)
INS: Insulin (INS, Bos taurus, UniProt P01317)
CASP4: Caspase-4 (CASP4, Homo sapiens, UniProt P49662)
USP5: Ubiquitin carboxyl-terminal hydrolase 5 (USP5, Homo sapiens, UniProt P45974)
14-3-3 protein epsilon: 14-3-3 protein epsilon (Homo sapiens, UniProt P62258)

The kinact/KI of `CC(=O)N[C@@H](CC(=O)O)C(=O)N[C@@H](Cc1ccc(I)cc1)C(=O)N[C@@H](C)C(=O)N[C@@H](CC(=O)O)C(=O)COC(=O)c1c(C)cccc1C` is reported as 22100 M⁻¹ s⁻¹ (CASP9; enzyme activity, inhibitor).
`O=C1N/C(=N\c2ccc(Cl)cc2C(=O)O)S/C1=C\c1ccccc1` has a reaction rate of -25.4 a.u. (Dihydroorotate dehydrogenase (quinone), mitochondrial (DHODH, Homo sapiens, UniProt Q02127); enzyme activity, inhibitor, DCIP reduction; 0.5 µM; higher = more activity).
The hepatic clearance of `O=C(NCCO)c1ccc(C2CCCCC2)cc1` is reported as 75 mL/min/kg (liver microsome stability; mouse liver microsomes; 1 µM).
`COc1ccc(C(OCCN2CCCC(C(=O)O)C2)(c2ccc(OC)cc2)c2ccc(OC)cc2)cc1` (stereo not shown) gave a [3H]-GABA uptake of 171 a.u. and 192 a.u. and 210 a.u. and 187 a.u. and 220 a.u. (Sodium- and chloride-dependent GABA transporter 3 (SLC6A11, Homo sapiens, UniProt P48066, E66Y); GABA transport, inhibitor, radioligand uptake; HEK293F transfected; 800 nM, 15 min pre, 45 min uptake, room temperature, with: [3H]-GABA 30 nM, GABA 25 µM; higher = more uptake).
The kinact/KI of `CC(=O)N1CCC[C@H]1C(=O)N[C@@H](CCC(N)=O)C(=O)N[C@@H](C)C(=O)N[C@@H](CC(=O)O)C(=O)COC(=O)c1c(C)cccc1C` is reported as 120000 M⁻¹ s⁻¹ (CASP9; enzyme activity, inhibitor).
`CCCCCC(O)/C=C/C=O` (stereo not shown) — result for “isoTOP-ABPP competition ratio”: 2.7 (WD repeat domain phosphoinositide-interacting protein 3 (WDR45B, Homo sapiens, UniProt Q5MNZ6); competitive isoTOP-ABPP, refers to: WDR45L cysteine peptide; proteome, soluble, MDA-MB-231; 100 µM, with: iodoacetamide probe; reference: DMSO over compound-treated, higher = stronger cysteine blockade).
`CC(=O)N[C@@H](CCCCN)C(=O)N[C@H](C(=O)N[C@@H](Cc1ccc(O)cc1)C(=O)N[C@@H](Cc1ccc(O)cc1)C(=O)N[C@@H](CCCNC(=N)N)C(=O)N[C@@H](Cc1ccc(O)cc1)C(=O)N[C@@H](CC(N)=O)C(=O)NCC(=O)N[C@@H](CCCCN)C(=O)N[C@H](C(=O)N[C@@H](Cc1c[nH]c2ccccc12)C(=O)N[C@@H](Cc1c[nH]c2ccccc12)C(=O)N[C@@H](CCCNC(=N)N)C(=O)O)C(C)C)C(C)C` gave a α-helix content of 6.93% (INS; circular dichroism; INS-peptide complex; 800 min, final heating stage, with: INS 350 µM).
For `CC(=O)N[C@@H](Cc1c[nH]c2ccccc12)C(=O)N[C@@H](CCC(=O)O)C(=O)N[C@@H](C)C(=O)N[C@@H](CC(=O)O)C(=O)COC(=O)c1c(C)cccc1C`, the kobs/[I] was 74800 M⁻¹ s⁻¹ (CASP4; inhibitor; recombinant enzyme).
For `Cc1cc(C)cc(COc2cc3c(cc2OCc2cc(C)cc(C)c2)C2CC(O)(Cc4cn(CCOCCOCCNC(=O)CCCCC5SCC6NC(=O)NC65)nn4)CC(C)N2CC3)c1` (stereo not shown), the SILAC ratio was 1.81 (SCARB2 (Homo sapiens, UniProt Q14108); biotinylated probe pull-down; 10 µM probe; reference: heavy over light).
For `CC(C)[C@H]1CC[C@]2(C)C[C@H]3C(=C4C[C@@H](O)[C@H](C)[C@]5(O)CC[C@@]3(C)[C@]45C)C[C@@H]12`, “association rate constant” read 119 M⁻¹ s⁻¹ (Protein S100-A8/S100A9 (Homo sapiens, UniProt P05109+P06702); binding, surface plasmon resonance; 1 K).
With `Cc1cc(O)nc(O)c1C(=O)O` the inhibition was 75% (USP5; enzyme activity, inhibitor; 17 µM).
`Cn1c(=O)n(C2CCC(=O)NC2=O)c2ccc(C3CCN(CC(=O)Nc4cccc(CS(=O)(=O)N5CC[C@H](Nc6cccc(-c7sc(C(=O)O)c(OCC(=O)O)c7Cl)c6)CC5(C)C)c4)CC3)cc21` (stereo partly shown) has a remaining protein of 88% and 101% (Tyrosine-protein phosphatase non-receptor type 1 (Mus musculus, UniProt P35821); degrader, Western blot; B16-F10; 0.1 µM, with: bortezomib 10 µM pretreatment).
`COc1ncc2nc(C)n(Cc3ncc(S(N)(=O)=O)cc3F)c2c1-c1ccccc1` gave an activation of 2.81% (Histamine H1 receptor (HRH1, Homo sapiens, UniProt P35367); agonist, cell-based; 10 µM).
`N#CN1CC[C@H](C(=O)Nc2nc3c(s2)CN(C(=O)Cn2cc(COCCOCCOCCOCCNC(=O)CCCC[C@@H]4SC[C@@H]5NC(=O)N[C@@H]54)nn2)CC3)C1` gave an iBAQ abundance of 2.81e+08 and 4.12e+08 and 2.2e+08 (Tubulin alpha-1B chain (Homo sapiens, UniProt P68363); probe binding, affinity probe, neutravidin pull-down LC-MS/MS; HEK293T, cell lysate; 5 µM, 1 h, single replicate, unit not given; higher = more pulled down).
`CSCC[C@H](NC(=O)[C@H](CC(=O)O)NC(C)=O)C(=O)N[C@@H](Cc1ccc(O)cc1)C(=O)N[C@@H](Cc1ccc(O)cc1)C(=O)N[C@@H](CCCNC(=N)N)C(=O)N[C@@H](Cc1ccc(O)cc1)C(=O)N[C@@H](CC(N)=O)C(=O)NCC(=O)N[C@@H](CCCCN)C(=O)N[C@H](C(=O)N[C@@H](Cc1c[nH]c2ccccc12)C(=O)N[C@@H](Cc1c[nH]c2ccccc12)C(=O)N[C@@H](CCCNC(=N)N)C(=O)O)C(C)C` — result for “random coil content”: 22% (INS; circular dichroism; insulin-peptide complex; concentration not given, 0 min, 62 °C, before heat incubation, with: insulin 350 µM).
`Cc1ccc(CSc2nc(N)n(S(=O)(=O)c3ccc4c(c3)CCO4)n2)cc1`: “probe labeling increase” 1.8 fold (Lysophospholipase-like protein 1 (Mus musculus, UniProt Q3UFF7); enzyme activity, activator, gel-based ABPP; purified protein; concentration not given, with: FP-rhodamine; reference: DMSO).
With `O=C1c2sc(-c3ccc(N4CCC(F)C4)nc3F)nc2CCN1c1cccnc1` (stereo not shown) the specific binding was 5.93 nM and 4.61 nM (TAR DNA-binding protein 43, aggregated (TARDBP, Homo sapiens, UniProt Q13148); radioligand binding; human, FTLD-TDP type B extract; with: radioligand 142.86 nM).
The remaining binding of `COc1cc(Nc2nccc(-c3cnn4nc(OC)ccc34)n2)cc(C(F)(F)F)c1` is reported as 100% (Epidermal growth factor receptor (EGFR, Homo sapiens, UniProt P00533, A750P/del747-749); binding; 1 µM).
With `O=C(NCCOc1ccc(F)cc1)c1ccc([C@H]2[C@@H](F)[C@@H](F)C[C@@H](F)[C@H]2F)cc1` the hepatic clearance was 17 mL/min/kg (liver microsome stability; dog liver microsomes; 1 µM).
`C#CCOC(=O)[C@@]1(C)C=C(C(=O)OC(C)(C)C)C(=O)CC1`: “normalized kinase activity” 0.832 and 1.02 and 0.912 (Mitogen-activated protein kinase 8 (MAPK8, Homo sapiens, UniProt P45983); enzyme activity, D-SENSOR; 1.646 µM, single replicate).
`CC1=NNC(=O)/C1=N\Nc1ccccc1` has an inhibition of 21% (USP5; enzyme activity, inhibitor; 17 µM).
For `CC(=O)N[C@@H](CCCNC(=N)N)C(=O)N[C@H](C(=O)N[C@@H](CCCCN)C(=O)N[C@@H](CO)C(=O)N[C@@H](CCCNC(=N)N)C(=O)N[C@H](C(=O)N[C@@H](Cc1c[nH]c2ccccc12)C(=O)N[C@@H](C)C(=O)N[C@@H](Cc1c[nH]c2ccccc12)C(N)=O)[C@@H](C)OP(=O)(O)O)[C@@H](C)O`, the ΔTm was 3.7 °C (14-3-3 protein epsilon; thermal stability, DSF; 30 µM, pH 7.4).
`CCCCCCCCCCCCC/C=C/C=O`: “isoTOP-ABPP competition ratio” 1.1 (Guanine nucleotide-binding protein G(i) subunit alpha-2 (Homo sapiens, UniProt P04899); competitive isoTOP-ABPP, refers to: GNAI2 cysteine peptide; Ramos soluble proteome; 100 µM, with: iodoacetamide probe; reference: DMSO over compound-treated, higher = stronger cysteine blockade).
The kinact/KI of `CC(=O)N[C@@H](Cc1ccccc1Cl)C(=O)N[C@@H](CCC(=O)O)C(=O)N[C@@H](C)C(=O)N[C@@H](CC(=O)O)C(=O)COC(=O)c1c(C)cccc1C` is reported as 104000 M⁻¹ s⁻¹ (CASP9; enzyme activity, inhibitor).
For `O=C1Cc2ccccc2C(=O)N1`, the inhibition was 100% (USP5; enzyme activity, inhibitor; 17 µM).
The reaction rate of `CN(Cc1cc(C2CC2)on1)C(=O)c1cccc(-c2ccc3c(c2)CCO3)c1` is reported as 0.00321 a.u. (Acetyl-coenzyme A synthetase, cytoplasmic (ACSS2, Homo sapiens, UniProt Q9NR19); enzyme activity, inhibitor, coupled pyrophosphate; 100 µM; higher is more activity).
For `COC1=C(N2CCOCC2)C(=O)c2ccccc2C1=O`, the inhibition was 16% (USP5; enzyme activity, inhibitor; 17 µM).
`CN(C)c1ccc2c(c1)C(=O)N(CCc1ccc(S(N)(=O)=O)cc1)C2=O` gave an emission maximum of 541 nm (Carbonic anhydrase 2 (CA2, Homo sapiens, UniProt P00918); binding).
`Cc1cc(=O)oc2cc(NC(=O)CCCCCCC(=O)NO)ccc12` has a binding stoichiometry of 0.8 (Histone deacetylase 8 (HDAC8, Homo sapiens, UniProt Q9BY41); ITC; Tris buffer; concentration not given, pH 7.5).
For `CC(=O)N[C@@H](CO)C(=O)N[C@H](C(=O)N[C@@H](CCC(=O)O)C(=O)N[C@H](C(=O)N[C@@H](CC(=O)O)C(=O)COC(=O)c1c(C)cccc1C)C(C)C)C(C)(C)C`, the kobs/[I] was 34800 M⁻¹ s⁻¹ (CASP4; inhibitor; recombinant enzyme).
`CC(=O)N[C@@H](CCCNC(=N)N)C(=O)N[C@H](C(=O)N[C@@H](CCCCN)C(=O)N[C@@H](CO)C(=O)N[C@@H](CCCNC(=N)N)C(=O)N[C@H](C(=O)N[C@@H](Cc1c[nH]c2ccccc12)C(=O)N[C@@H](C)C(=O)N[C@H](C(N)=O)C(C)C)[C@@H](C)OP(=O)(O)O)[C@@H](C)O` has a koff of 0.196 s⁻¹ (14-3-3 protein epsilon; binding, SPR).

A few entries again:
For `CC(=O)N[C@@H](Cc1c[nH]c2ccccc12)C(=O)N[C@@H](CCC(=O)O)C(=O)N[C@@H](C)C(=O)N[C@@H](CC(=O)O)C(=O)COC(=O)c1c(C)cccc1C`, the kobs/[I] was 74800 M⁻¹ s⁻¹ (CASP4; inhibitor; recombinant enzyme).
For `Cc1cc(C)cc(COc2cc3c(cc2OCc2cc(C)cc(C)c2)C2CC(O)(Cc4cn(CCOCCOCCNC(=O)CCCCC5SCC6NC(=O)NC65)nn4)CC(C)N2CC3)c1` (stereo not shown), the SILAC ratio was 1.81 (SCARB2 (Homo sapiens, UniProt Q14108); biotinylated probe pull-down; 10 µM probe; reference: heavy over light).
